Experimental data pooled from the literature.
Lines come from different studies, so protocols differ. ± marks the error that the study gave. In brackets after ≈: the same amount, converted by molar mass.
Organism: Mycobacterium tuberculosis

SMILES = c1ccc(-c2nc3cc(Nc4nccn4-c4cc(NC5CCCC5)ncn4)ccc3[nH]2)cc1; system = W4; setting = 120 h; quantity = MIC50; result = 0.06 µM (≈ 0.0262 µg/mL)
SMILES = O=c1[nH]c2cc(CO)c(Cl)cc2c(=O)n1Cc1cncnc1; system = PptT conditional knockdown; quantity = MIC90; result = 7.28 µM (≈ 2.32 µg/mL)
SMILES = Cc1nc(OCCc2cc(F)cc(F)c2)c(C(N)=O)s1; assay = growth; system = H37Rv-LP; setting = 120 h; quantity = IC90; result = 37 ± 11 µM
SMILES = COc1ccc(-c2cc(C(F)(F)F)c3c(N)c(C(=O)Nc4ccc(C)cc4C)sc3n2)cc1; system = H37Rv wild type; setting = 120 h; quantity = IC90; result = inactive
SMILES = NC(=O)c1cc(-c2cscn2)ccc1OCCc1cccc(F)c1; system = H37Rv-LP; scale = baseline: HepG2 CC50 over Mtb IC90; quantity = selectivity index; result = 0.08
SMILES = COC(=O)OCc1cc2[nH]c(=S)n(Cc3cncnc3)c(=O)c2cc1Cl; system = PptT conditional knockdown; quantity = MIC90; result = 0.27 µM (≈ 0.106 µg/mL)
SMILES = NC(=O)c1cc(Br)ccc1OCCc1cccc(F)c1; assay = growth; system = H37Rv-LP; setting = 120 h; quantity = IC90; result = 5.5 ± 1.7 µM
SMILES = O=c1c2cc(Cl)c(CO)cc2[nH]c(=S)n1Cc1cncnc1; system = PptT conditional knockdown; quantity = MIC90; result = 1.62 µM (≈ 0.542 µg/mL)
SMILES = COc1ccc(-c2cc(C(F)(F)F)c3c(N)c(C(=O)Nc4cc(C)ccc4C)sc3n2)cc1; assay = growth inhibition; system = H37Rv LepB under-expressing; quantity = IC50; result = > 100 µM
SMILES = Cc1ccc(OCCc2cc(F)cc(F)c2)c(C(=O)NC(C)C)c1; system = H37Rv-LP; scale = baseline: HepG2 CC50 over Mtb IC90; quantity = selectivity index; result = 2
SMILES = COc1ccc(-c2cc(C(F)(F)F)c3c(N)c(C(=O)Nc4cccc(C)c4C)sc3n2)cn1; assay = growth inhibition; system = H37Rv LepB under-expressing; quantity = IC50; result = 0.5 ± 0.2 µM
SMILES = O=c1c2cc(Cl)ccc2[nH]c(=S)n1Cc1cncc(-c2nnn[nH]2)c1; system = PptT conditional knockdown; quantity = MIC90; result = 12 µM (≈ 4.46 µg/mL)
SMILES = NNC(=O)c1ccncc1; system = H37Rv; setting = 10 µg/mL; quantity = activity; result = inactive
SMILES = Cc1noc(C)c1-c1ccc(OCCc2cccc(F)c2)c(C(N)=O)c1; system = H37Rv-LP; scale = baseline: HepG2 CC50 over Mtb IC90; quantity = selectivity index; result = > 9
SMILES = CN1CCN(c2ccc(Nc3nccc(-c4cccnc4)n3)cc2C(F)(F)F)CC1; system = H37Rv auxotrophic strain; quantity = MIC; result = > 51 µg/mL
SMILES = COC1CN(C(=O)c2sc3nc(-c4ccccc4)ccc3c2N)C1; assay = growth inhibition; system = H37Rv LepB under-expressing; quantity = IC50; result = 7.6 ± 3 µM
SMILES = NC(=O)c1cncc(Cn2c(=S)[nH]c3cc(CO)c(Cl)cc3c2=O)c1; system = PptT conditional knockdown; quantity = MIC90; result = 3.14 µM (≈ 1.18 µg/mL)
SMILES = COc1cccc(-c2cc(C(F)(F)F)c3c(N)c(C(=O)Nc4cccc(C)c4C)sc3n2)c1; assay = growth inhibition; system = H37Rv LepB under-expressing; quantity = IC50; result = 1.5 ± 1 µM
SMILES = O=C(OCc1ccccc1)OCc1cc2[nH]c(=S)n(Cc3cccnc3)c(=O)c2cc1Cl; system = H37Rv; quantity = MIC90; result = 88.7 µM (≈ 41.5 µg/mL)
SMILES = Cc1cccc(NC(=O)c2sc3nc(-c4ccco4)cc(C(F)(F)F)c3c2N)c1C; system = H37Rv wild type; setting = 120 h; quantity = IC90; result = inactive
SMILES = Cc1ccc(OCCc2ccc(Br)cc2)c(C(N)=O)c1; system = H37Rv-LP; scale = baseline: HepG2 CC50 over Mtb IC90; quantity = selectivity index; result = 60
SMILES = Nc1c(C(=O)NCc2ccccc2)sc2ncccc12; assay = growth inhibition; system = H37Rv LepB under-expressing; quantity = IC50; result = > 100 µM
SMILES = NC(=O)c1ccc(Cn2c(=S)[nH]c3ccc(Cl)cc3c2=O)cn1; system = PptT conditional knockdown; quantity = MIC90; result = 40.7 µM (≈ 14.1 µg/mL)
